Results collected from several papers.
± gives the spread as reported.
Cell line: RAW264.7

Cc1ccc(NC(=S)NS(=O)(=O)c2cnc(N/N=C/c3ccccc3)[nH]c2=O)cc1 has a mRNA level of 0.171 ± 0.007 fold change (qPCR, measured: IL-6; concentration not given, compound at quarter of IC50, together with: LPS 1 µg/mL; baseline: LPS control).
The IC50 of COC(=O)[C@@H](N)CCCNC(N)=N[N+](=O)[O-] is reported as 36.8 µM (NO release, inhibitor, Griess; LPS-stimulated).
NNc1ncc(S(=O)(=O)NC(=S)Nc2ccccc2)c(=O)[nH]1 gave a mRNA level of 0.207 ± 0.021 fold change (qPCR, measured: CRP; concentration not given, compound at quarter of IC50, together with: LPS 1 µg/mL; baseline: LPS control).
O=C1C[C@H](O)CO1 gave an IC50 of 21 ± 10.8 µM (NO production; together with: LPS).
COC1=C[C@@H]2[C@@H]3Cc4ccc(OC)c(O)c4[C@]2(CCN3C)CC1=O gave an IC50 of 70.9 µM (NO release, inhibitor, Griess; LPS-stimulated).
Under “FLAG-AF9 occupancy fold change”, C/C=C/C(=O)O is recorded as 1.58 fold (ChIP-seq; 10 mM, together with: LPS; baseline: responsive over unresponsive genes).
With O=C(/C=C/CCl)O[C@@H]1COC(=O)C1 the IC50 was 4 µM (NO release, inhibitor; LPS-stimulated).
For CNC(=N)NCCC[C@H](N)C(=O)O, the IC50 was 22.1 µM (NO release, inhibitor, Griess; LPS-stimulated).

For quick reference, copied from above:
Cc1ccc(NC(=S)NS(=O)(=O)c2cnc(N/N=C/c3ccccc3)[nH]c2=O)cc1 has a mRNA level of 0.171 ± 0.007 fold change (qPCR, measured: IL-6; concentration not given, compound at quarter of IC50, together with: LPS 1 µg/mL; baseline: LPS control).
